Measurements of several laboratories.
Parts stem from different laboratories: compare values within a part only. Values joined by “and” are separate records of one study, mostly repeats; a detail may differ. Positions count from the first letter of the parent shown.
Sequence of UniProt Q9BYT3 (whole entry, looked up): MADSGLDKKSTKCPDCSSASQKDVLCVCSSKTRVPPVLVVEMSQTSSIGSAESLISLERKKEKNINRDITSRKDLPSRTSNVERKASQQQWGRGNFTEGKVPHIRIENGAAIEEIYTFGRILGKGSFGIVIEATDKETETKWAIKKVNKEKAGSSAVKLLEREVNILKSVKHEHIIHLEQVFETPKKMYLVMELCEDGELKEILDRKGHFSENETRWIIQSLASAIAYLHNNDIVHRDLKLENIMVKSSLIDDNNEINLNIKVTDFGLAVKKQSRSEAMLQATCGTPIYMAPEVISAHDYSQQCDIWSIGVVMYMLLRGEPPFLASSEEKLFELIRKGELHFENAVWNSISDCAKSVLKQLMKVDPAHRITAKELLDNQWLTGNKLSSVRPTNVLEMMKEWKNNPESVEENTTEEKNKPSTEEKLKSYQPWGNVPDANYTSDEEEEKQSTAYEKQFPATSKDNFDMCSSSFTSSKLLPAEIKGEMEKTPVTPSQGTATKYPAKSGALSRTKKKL
Sequence of UniProt Q86Z02 (whole entry, looked up): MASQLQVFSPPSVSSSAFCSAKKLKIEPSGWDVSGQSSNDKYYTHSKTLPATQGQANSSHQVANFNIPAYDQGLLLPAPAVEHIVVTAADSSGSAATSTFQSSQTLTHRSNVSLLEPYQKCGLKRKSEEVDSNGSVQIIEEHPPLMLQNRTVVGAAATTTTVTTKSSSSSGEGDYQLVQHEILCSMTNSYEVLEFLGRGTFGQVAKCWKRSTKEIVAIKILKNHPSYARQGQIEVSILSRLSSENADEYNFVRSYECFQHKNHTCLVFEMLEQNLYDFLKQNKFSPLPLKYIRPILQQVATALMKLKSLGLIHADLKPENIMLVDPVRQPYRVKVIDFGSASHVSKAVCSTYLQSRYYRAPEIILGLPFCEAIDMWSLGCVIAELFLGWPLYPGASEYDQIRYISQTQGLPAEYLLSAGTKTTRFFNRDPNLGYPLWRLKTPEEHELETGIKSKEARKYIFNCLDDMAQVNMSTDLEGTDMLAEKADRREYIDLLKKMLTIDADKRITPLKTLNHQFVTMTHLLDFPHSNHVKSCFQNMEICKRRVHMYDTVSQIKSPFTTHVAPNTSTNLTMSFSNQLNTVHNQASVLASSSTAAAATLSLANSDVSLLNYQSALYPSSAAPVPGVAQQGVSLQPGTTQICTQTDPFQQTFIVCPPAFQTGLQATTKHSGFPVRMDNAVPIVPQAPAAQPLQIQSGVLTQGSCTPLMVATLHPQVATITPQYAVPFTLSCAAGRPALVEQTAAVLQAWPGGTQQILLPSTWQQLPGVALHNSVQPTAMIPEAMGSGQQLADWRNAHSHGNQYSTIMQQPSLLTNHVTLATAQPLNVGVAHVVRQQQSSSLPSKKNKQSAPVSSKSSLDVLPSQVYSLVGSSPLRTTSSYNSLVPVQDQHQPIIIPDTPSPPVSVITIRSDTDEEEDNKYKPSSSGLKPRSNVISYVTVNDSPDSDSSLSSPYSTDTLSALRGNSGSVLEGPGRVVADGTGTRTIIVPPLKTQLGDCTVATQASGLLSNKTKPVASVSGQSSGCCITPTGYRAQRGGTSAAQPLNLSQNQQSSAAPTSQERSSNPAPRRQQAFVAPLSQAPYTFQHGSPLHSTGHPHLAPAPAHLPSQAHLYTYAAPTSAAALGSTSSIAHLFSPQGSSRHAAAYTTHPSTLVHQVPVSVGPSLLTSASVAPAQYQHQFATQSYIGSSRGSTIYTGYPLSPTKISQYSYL
Sequence of UniProt P06241 (whole entry, looked up): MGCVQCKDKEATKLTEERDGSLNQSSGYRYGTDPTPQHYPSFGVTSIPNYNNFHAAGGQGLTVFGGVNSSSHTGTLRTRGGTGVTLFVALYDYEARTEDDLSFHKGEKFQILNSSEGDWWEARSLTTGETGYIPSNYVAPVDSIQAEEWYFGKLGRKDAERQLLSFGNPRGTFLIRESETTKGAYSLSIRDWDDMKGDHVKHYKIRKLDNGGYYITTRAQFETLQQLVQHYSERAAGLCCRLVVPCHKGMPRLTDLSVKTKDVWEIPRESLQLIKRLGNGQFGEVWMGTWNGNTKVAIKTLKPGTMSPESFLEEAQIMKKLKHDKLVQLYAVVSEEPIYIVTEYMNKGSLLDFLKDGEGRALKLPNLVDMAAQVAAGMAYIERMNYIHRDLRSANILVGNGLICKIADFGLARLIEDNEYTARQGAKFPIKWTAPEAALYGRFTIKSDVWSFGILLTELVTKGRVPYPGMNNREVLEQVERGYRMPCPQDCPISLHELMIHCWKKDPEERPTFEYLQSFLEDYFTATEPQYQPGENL
Sequence of UniProt Q9UBE8 (whole entry, looked up): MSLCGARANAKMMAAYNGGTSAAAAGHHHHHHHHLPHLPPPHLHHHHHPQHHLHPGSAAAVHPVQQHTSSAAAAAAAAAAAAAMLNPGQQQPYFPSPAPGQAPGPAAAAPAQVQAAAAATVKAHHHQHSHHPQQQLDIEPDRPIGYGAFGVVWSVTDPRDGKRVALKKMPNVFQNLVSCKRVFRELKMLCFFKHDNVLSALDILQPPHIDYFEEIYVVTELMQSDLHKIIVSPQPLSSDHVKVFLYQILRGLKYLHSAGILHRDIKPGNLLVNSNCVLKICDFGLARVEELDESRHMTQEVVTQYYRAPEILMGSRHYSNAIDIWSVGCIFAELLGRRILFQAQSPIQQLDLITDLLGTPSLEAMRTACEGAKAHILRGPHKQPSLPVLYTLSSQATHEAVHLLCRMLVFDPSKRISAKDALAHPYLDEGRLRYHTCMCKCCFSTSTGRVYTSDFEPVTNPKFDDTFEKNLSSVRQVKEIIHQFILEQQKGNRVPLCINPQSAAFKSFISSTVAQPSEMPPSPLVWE

Sample 1 — read-out: binding; method: radioligand binding; tested at: 10 µM
Target: Mu-type opioid receptor (OPRM1, Homo sapiens, UniProt P35372)
Sequence of UniProt P35372 (whole entry, looked up): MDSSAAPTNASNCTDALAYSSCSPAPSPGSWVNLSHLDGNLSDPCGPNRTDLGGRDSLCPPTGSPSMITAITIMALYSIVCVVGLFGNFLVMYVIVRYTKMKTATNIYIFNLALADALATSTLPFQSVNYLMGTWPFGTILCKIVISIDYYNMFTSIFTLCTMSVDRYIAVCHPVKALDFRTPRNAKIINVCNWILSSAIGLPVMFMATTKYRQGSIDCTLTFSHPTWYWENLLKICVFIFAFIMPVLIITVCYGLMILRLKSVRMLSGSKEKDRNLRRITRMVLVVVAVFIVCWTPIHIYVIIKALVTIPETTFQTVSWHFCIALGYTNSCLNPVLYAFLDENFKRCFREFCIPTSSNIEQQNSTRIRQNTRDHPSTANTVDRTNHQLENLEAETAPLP
Compound	inhibition [%]
CNC(=O)c1cc(C(=O)NC2CC2)cn(Cc2ccccc2)c1=O	13.5
O=C(Nc1cccnn1)N1CCC(=Cc2cccc(Oc3ccc(C(F)(F)F)cn3)c2)CC1	17.5
COCc1nc2cnc3cc(-c4c(C)noc4C)c(OC[C@H]4CCNC4)cc3c2n1[C@H](C)c1ccccc1	16.9
CCOC(=O)c1cc2cc(-c3cc(C(=O)NCc4ccc(C(=O)O)cc4)nn3C)ccc2[nH]1	0.37
Nc1c(C(=O)NCc2ccc(C(=O)NCCCC3CCCCC3)cc2)cnn1-c1ccccc1	41.2
COc1nc2ccc([C@@](O)(c3ccccc3)C3CCN(C(C)=O)CC3)cc2c(Cl)c1Cc1ccc(-n2cccn2)cc1	25.6
CN1C(=O)[C@@H](N2CCc3cn(Cc4ccccc4)nc3C2=O)COc2ccccc21	10.6
Cc1c[nH]c2nccc(Oc3c(F)cc(Nc4cc(Cl)nc(N)n4)cc3F)c12	-0.03
CS(=O)(=O)NCC[C@H](NC(=O)c1cncc2c1cnn2-c1ccc(F)cc1)c1ccnc(S(C)(=O)=O)c1	-0.92
O=C(Nc1cccnn1)N1CC(CC=Cc2cncc(Oc3ccc(C(F)(F)F)cn3)n2)C1	1.18
CC(C)CC(=O)N1CCc2nc(-c3ccc(Br)cc3)nc(N(C)Cc3ccccc3)c2C1	-0.75
C[C@@H]1CN(c2cc(-c3nn(C)c4ccc(OC5(C)CC5)cc34)ncn2)C[C@H](C)O1	13.2
COc1cc(-c2cn(C3CCc4ccccc4N(CC(F)(F)F)C3=O)nn2)ccc1-n1ccc(C)n1 (centres unmarked)	5.55
CN([C@@H]1CCc2c(CC(=O)O)c3cc(S(C)(=O)=O)ccc3n2C1)S(=O)(=O)c1ccc(F)cc1	7.34
O=C1CCc2cc(Nc3cc(OC4CCOCC4)c([N+](=O)[O-])cc3Cl)ccc2N1	1.31
CNC(=O)Nc1ccc2c(c1)[C@]1(CC2)OC(=O)N(CC(=O)N(Cc2ccc(F)cc2)[C@@H](C)C(F)(F)F)C1=O	-5.11
Cc1cc(C)c(-n2ccn3nc(-c4cccnc4)cc23)cc1NC(=O)c1cc(C#N)cc(S(F)(F)(F)(F)F)c1	20.7
CC1=C(C#N)C(c2ccc3c(c2)c(NC(=O)c2ccccc2C)nn3C)C(C#N)=C(C)N1	13.7
Cc1nc(Cc2cccc(C(F)(F)F)c2)sc1-c1ccc(C(N)=O)nc1	5.75
CNC(=O)c1ccc(Nc2ncc(C(F)(F)F)c(NCc3nccnc3N(C)S(C)(=O)=O)n2)cc1	-10.7
Cc1nc(C2CCN(C(=O)c3ccc(OC(F)(F)F)cc3N)CC2)c2ncc(N3CCN(C)CC3)cc2n1	-1.66
COCCc1ccc(-c2c(C)nc3c(N4CCOCC4)ccnn23)cn1	-1.51
O[C@]1(C(F)(F)F)CCCC[C@H]1Nc1ccc(F)cc1	6.05
O=C(Nc1cnc(Oc2ccc(F)cc2)nc1)N1CCc2ncccc2[C@@H]1c1ccc(F)cc1	28.1
COc1cccc(CNC(=O)c2nc3scc(COCc4ccc(C(=O)O)cc4)c3c(=O)[nH]2)c1	-3.34

Sample 2 — cell line: CAPAN-1 (BRCA2-mutant)
Compound: O=C(c1cc(Cc2n[nH]c(=O)c3ccccc23)ccc1F)N1CCN(C(=O)C2CC2)CC1
setting	clonogenic survival
1 µM	16.2% and 17.5%
0.25 µM	23% and 28.7%
0.5 µM	22.3% and 33.3%

Sample 3 — read-out: binding; method: phage display NGS; form: peptide; tested at: concentration not given; notes: panning round 2; baseline: input library
Target: UDP-N-acetylglucosamine--peptide N-acetylglucosaminyltransferase 110 kDa subunit (OGT, Homo sapiens, UniProt O15294)
Sequence of UniProt O15294 (whole entry, looked up): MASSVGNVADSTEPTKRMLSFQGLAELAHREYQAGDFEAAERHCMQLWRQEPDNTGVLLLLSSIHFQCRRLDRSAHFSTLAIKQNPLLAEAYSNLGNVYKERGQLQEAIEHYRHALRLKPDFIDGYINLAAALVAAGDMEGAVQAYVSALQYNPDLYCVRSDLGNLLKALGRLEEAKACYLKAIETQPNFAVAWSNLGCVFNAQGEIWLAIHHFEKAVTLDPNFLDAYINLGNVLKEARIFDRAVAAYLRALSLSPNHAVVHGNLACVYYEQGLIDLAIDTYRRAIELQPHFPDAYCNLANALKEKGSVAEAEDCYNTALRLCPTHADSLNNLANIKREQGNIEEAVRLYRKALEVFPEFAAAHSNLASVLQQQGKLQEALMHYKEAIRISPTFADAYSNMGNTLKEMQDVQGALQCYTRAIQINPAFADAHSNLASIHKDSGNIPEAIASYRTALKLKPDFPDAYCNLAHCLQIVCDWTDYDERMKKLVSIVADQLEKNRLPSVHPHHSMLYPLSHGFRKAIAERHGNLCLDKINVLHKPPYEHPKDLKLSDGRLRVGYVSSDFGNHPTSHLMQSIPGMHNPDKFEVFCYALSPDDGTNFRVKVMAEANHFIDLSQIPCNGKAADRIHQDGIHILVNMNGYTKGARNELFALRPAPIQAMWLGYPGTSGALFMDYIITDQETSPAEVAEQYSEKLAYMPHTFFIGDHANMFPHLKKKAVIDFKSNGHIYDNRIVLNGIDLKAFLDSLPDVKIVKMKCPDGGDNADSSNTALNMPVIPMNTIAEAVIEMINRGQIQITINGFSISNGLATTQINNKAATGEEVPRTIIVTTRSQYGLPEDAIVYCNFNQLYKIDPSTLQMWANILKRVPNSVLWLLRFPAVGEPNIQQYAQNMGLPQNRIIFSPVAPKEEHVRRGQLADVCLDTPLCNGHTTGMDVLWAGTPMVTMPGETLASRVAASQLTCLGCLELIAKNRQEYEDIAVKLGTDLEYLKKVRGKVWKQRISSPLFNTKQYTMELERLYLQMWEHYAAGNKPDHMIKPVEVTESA
Molecule	enrichment fold change
WPVQPMYQIFGRYPE	7.75
HPHNMMQHHGNRFDM	7.09
SIKGAKPKYQIEYVF	4
HLRTHRVDHHYYVYD	4.54
SPWHHMHHHPTDSVA	4.71
QNDRYLPAYVITYAR	119
AIYAQHPMHRTHIRI	4.64
NDMFAPKYQLTWREF	41.4

Sample 4 — cell line: mouse MPNST tumor cells; method: high-content nuclear imaging; refers to: cell number; tested at: 10 µM; time: 12 h; notes: mean of 2 replicates; baseline: plate mean; direction: higher = more cells
Compound	nuclei count
CC(C)(O)C(=O)Nc1ccc([N+](=O)[O-])c(C(F)(F)F)c1	1.49 z-score
CC(=O)Nc1cc([As](=O)(O)O)ccc1O	-0.379 z-score
CN1C[C@H](C(=O)N[C@]2(C)O[C@@]3(O)[C@@H]4CCCN4C(=O)[C@H](Cc4ccccc4)N3C2=O)C[C@@H]2c3cccc4[nH]cc(c34)C[C@H]21	3.98 z-score and 2.1 z-score and 5.19 z-score

Sample 5 — read-out: enzyme activity; mode: inhibitor; tested at: 0.5 µM; baseline: control
SMILES: N/C(=N\[N+](=O)[O-])N/N=C\c1ccc(-c2cccc([N+](=O)[O-])c2)o1
target	remaining activity
PKN1 (Homo sapiens, UniProt Q16512)	93.9%
NLK (Homo sapiens, UniProt Q9UBE8)	103%
FYN (Homo sapiens, UniProt P06241)	101%
HIPK1 (Homo sapiens, UniProt Q86Z02)	81.1%

Sample 6 — cell line: HEK-293T/ACE2; tested at: concentration not given; baseline: vehicle
Substance	nuclei number [%]
benzalkonium chloride	91.3
Aprotinin	100
Tyloxapol	99.8

Sample 7 — target: CCNE1, cyclin fold, Cln2 fusion (human); method: yeast growth competition, sequencing; medium: yeast; notes: strong parent motif; baseline: not given; direction: higher = stronger binding; starting sequence: viral docking peptide; PGASRRLFGSSAD
Change	normalised enrichment score
PGASRRLFGSSAA [D13A]	0.91
PGASKRLFGSSAD [R5K]	0.378
PGASRALFGSSAD [R6A]	0.109
PGASARAFGSSAD [R5A L7A]	0.353
PGASRRLFGSAAD [S11A]	1.56
PGASRRLLGSSAD [F8L]	0.225
PGASRRLFASSAD [G9A]	2.07
PGAARRLFGSSAD [S4A]	2.14

Single results of other studies
SMILES	tested on	test	system	setting	how to read	measurement	value
C=CC(=O)N1CCC[C@@H](n2nc(-c3ccc(Oc4ccccc4)cc3)c3c(N)ncnc32)C1	STK33 (Homo sapiens, UniProt Q9BYT3)	enzyme activity, inhibitor	–	1 µM	–	inhibition	31%
CNC(=O)c1ccc(-c2cnn3ccc(C(=O)N(C)c4ccc(Cl)c(C(=O)OC)c4)cc23)cc1	Cryptosporidium parvum	–	neonatal calf	day 0	direction not given	faecal consistency score	3
